Experimental data collected from several papers.
Numbered parts are unrelated; each lists some results of a single study.

Series 1 — technique: RNA Bind-n-Seq; molecule type: RNA; medium: in vitro; concentration: 365 nM; baseline: no-protein control; direction: higher = stronger binding
Target: RNA binding protein fox-1 homolog 2, RRM domain, GST-SBP tag (RBFOX2, Homo sapiens, UniProt O43251-10, residues 100-194)
Notes: natural RNA segment, single round, ends assumed
Target sequence (chain): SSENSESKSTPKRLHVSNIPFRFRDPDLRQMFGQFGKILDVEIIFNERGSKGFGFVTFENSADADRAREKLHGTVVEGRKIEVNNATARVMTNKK
| Sequence | RBNS enrichment (R) |
| --- | --- |
| GGGAGUUCUACAGUCCGACGAUCUACACAUACGUAUGUUAGGAAAAUAGGCACACUUUCAAAGAGAAUGUUCUCUUACACAUACGUAUGUUAGGAAAAUAGACACAUUUUCAAAGAGAAUGUUCUCUUACAUAUGGAAUUCUCGGGUGCCAA | 0.313 |
| GGGAGUUCUACAGUCCGACGAUCAAACACUCUUCAGAGAAAUCUGCAUUCUAUUUCUCAUGUAUAAAACUAGGAAUCCUCCAACCAGGCUCCUGUGAUAGAGUUCUUUUAAGCCCAAGAUUUUUUAUUUGAGGUGGAAUUCUCGGGUGCCAA | 3.75 |
| GGGAGUUCUACAGUCCGACGAUCUUUUUAAAUAAAACCAUUCACAGUUUACUUUGUCUUGAUACCUUGGUUUGUCCCAGCUGAAGUGAAGCAAGAGAGUUUGAAUUAAUUUUUCCAUUAUAAUGUUUUCGCAUUGGAAUUCUCGGGUGCCAA | 0.857 |
| GGGAGUUCUACAGUCCGACGAUCGUGCUUAGAGAGAGCAAUGUCCAAUCUGUGGCUUGGGAGGUGUCUGCAAGUGACAUUCCUGCGAGCUUAGUGAUAUGGUCAAGUCCAUUGCAUCAGUAAUUUAUUUUUUUUGGAAUUCUCGGGUGCCAA | 0.872 |

Series 2 — technique: protein-binding microarray; molecule type: double-stranded DNA, one strand shown; medium: in vitro; concentration: 250 nM; notes: 60-bp whole probe; together with: salmon DNA 0.4 mg/ml; baseline: random background probes; direction: higher = stronger binding
Target: Interferon regulatory factor 5, full length, phosphomimetic (IRF5, Homo sapiens, UniProt Q13568-2, residues 1-514, K96S/S451D/S453D/S456D/S462D)
| Sequence | log fluorescence |
| --- | --- |
| GCCTAGCACTTCTTACTTTGGGATTCTGAGTGCTAGGTCTTGATTCGCTTGACGCTGCTG | 0.187 z-score |
| GCCTAGCACTTAGGTCTCAGACTGGGTTAGTGCTAGGTCTTGATTCGCTTGACGCTGCTG | -0.312 z-score |
| GCCTAGCACTTAGAACTGAGTTTCGAATAGTGCTAGGTCTTGATTCGCTTGACGCTGCTG | 4.81 z-score |
| GCCTAGCACCTAGAGATTTTTCTCAACCGGTGCTAGGTCTTGATTCGCTTGACGCTGCTG | -0.16 z-score |

Series 3 — technique: RNA Bind-n-Seq; molecule type: RNA; medium: in vitro; concentration: 1 µM; notes: whole 134-nt RNA, ends assumed; together with: 150 mM KCl; baseline: input library; direction: higher = stronger binding
Target: Ras GTPase-activating protein-binding protein 1, RRM domain (G3BP1, Homo sapiens, UniProt Q13283)
UniProt Q13283, sequence (whole entry, looked up): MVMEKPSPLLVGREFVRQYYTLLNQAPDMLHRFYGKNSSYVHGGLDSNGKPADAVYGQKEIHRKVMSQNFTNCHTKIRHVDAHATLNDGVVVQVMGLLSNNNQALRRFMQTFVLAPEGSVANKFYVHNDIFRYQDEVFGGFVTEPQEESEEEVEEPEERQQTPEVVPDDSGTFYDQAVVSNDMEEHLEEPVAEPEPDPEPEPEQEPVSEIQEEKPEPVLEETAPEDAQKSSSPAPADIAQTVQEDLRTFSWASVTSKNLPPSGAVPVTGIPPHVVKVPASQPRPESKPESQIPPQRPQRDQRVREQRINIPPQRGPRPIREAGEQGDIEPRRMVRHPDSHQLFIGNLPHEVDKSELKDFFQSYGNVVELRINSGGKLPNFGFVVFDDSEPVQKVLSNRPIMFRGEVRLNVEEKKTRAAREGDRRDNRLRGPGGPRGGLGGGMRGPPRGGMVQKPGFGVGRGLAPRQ
| Sequence | log2 enrichment |
| --- | --- |
| GGGAGUUCUACAGUCCGACGAUCCCUGUGCUACACAUCGUAUGUACCGAAUCGGGUUUUUUUGGGUUUUUUUGGUUUUUUUGGGAAAGUAUUAUGUUACGCCGUUCGGAUCUGUGGAAUUCUCGGGUGUCAAGG | -0.249 |
| GGGAGUUCUACAGUCCGACGAUCUCCUCAAGUCCUGUGCUACACAUCGUAUGUACCGAAUCGGGGCGGGCGGCGGAAAGUAUUAUGUUACGCCGUUCGGAUCUGCACUUCCAGUGGAAUUCUCGGGUGUCAAGG | -0.281 |
| GGGAGUUCUACAGUCCGACGAUCGUCCUGUGCUACACAUCGUAUGUACCGAAUCGGAAAAAAGGAAAAAAGGAAAAAAGGGGAAAGUAUUAUGUUACGCCGUUCGGAUCUGCAUGGAAUUCUCGGGUGUCAAGG | 0.114 |
| GGGAGUUCUACAGUCCGACGAUCCACAGACAACACGCACCCACACAGACACAGAGGGUAGGGGUUGGGAUGGGGACAGGGUGCACAGCAGGGCGGGGUAGGACCCCAGCCCCUUGGAAUUCUCGGGUGUCAAGG | -0.12 |

Single results of other studies
| Substance | target | test | system | conditions | how to read | endpoint | result |
| --- | --- | --- | --- | --- | --- | --- | --- |
| PhoQ, residues 284 288 289 292 302 303 SVTLVV | PhoP, residues 12 14 15 18 19 HLGGL (Escherichia coli, UniProt P23836) | Sort-seq, item: YFP reporter | E. coli | PhoQ-PhoP variant library, together with: 10 µM Mg2+ | baseline: high Mg2+ state, higher = stronger signaling | fold induction | 0.226 |
